Assay results collected from several papers.
Compare with care: the assays were run in different laboratories. ± gives the spread as reported.
Cell line: MCF7

For `CCC1=C(CC)C2=[N+]3C1=Cc1c(CC)c(CC)c4[n]1[Ir-3]31([c]3n(C(C)C)cc[n+]3C(C)C)([c]3n(C(C)C)cc[n+]3C(C)C)[n]3c(c(CC)c(CC)c3=CC3=[N+]1C(=C4)C(CC)=C3CC)=C2.F[P-](F)(F)(F)(F)F`, the IC50 was 0.73 µM (cell growth or viability, MTT; 72 h).
The IC50 of `COc1c(O)cc2oc3cc(O)c4c(c3c(=O)c2c1CCC(C)(C)O)OC(C)(C)CC4` is reported as over 40 µM (cell growth or viability; 48 h).
The IC50 of `CSc1nc(Nc2cccc(/C(C)=N/NC(=O)c3ccc([N+](=O)[O-])cc3)c2)c(C#N)c(-c2ccccc2)n1` is reported as 10.3 µM (cell growth or viability, MTT; 48 h).
The IC50 of `CC(C)c1cccc(C(C)C)c1N1CCN(c2c(C(C)C)cccc2C(C)C)C1=[Se].[Cl][Ag]` is reported as 6.7 µM (cell growth or viability, MTT; 72 h).
For `Nc1ccccc1NC(=O)c1cnccn1`, the IC50 was 46.3 µM (cell growth or viability, MTT; 48 h).
`CCN1CCC2(CC1)C/C(=N\NC(=O)Nc1ccc(C)cc1)c1ccccc1O2` has an IC50 of 19 µM (cell growth or viability, MTT; 48 h).
`C=CC(=C)CC[C@]1(C)[C@H](C)C[C@H](O)[C@@]23C(=C[C@H](OC(=O)C(C)C)C[C@@H]12)[C@@H](OC(C)=O)O[C@H]3OC(C)=O` has an IC50 of 0.68 µM (cell growth or viability, SRB).
`CC(=O)[O-].O.O.[O-]c1ccc(Br)cc1C=NCCN1CCOCC1.[Zn+2]` gave an IC50 of 35.7 mg/L (cell viability, MTT; 72 h).
`CSc1nc(Nc2ccc(C(=O)N/N=C/c3ccc(Cl)cc3Cl)cc2)c(C#N)c(-c2ccccc2)n1` gave an IC50 of 26.8 µM (cell growth or viability, MTT; 48 h).
`COc1cccc(Cn2cc(COc3c(OC)ccc4cc5[n+](cc34)CCc3cc4c(cc3-5)OCO4)nn2)c1` gave an IC50 of 41.2 µM (cell growth or viability, MTT).
`CCCC(CCC)C(=O)[O][Pt]([Cl])([Cl])[O]C(C)=O.N.N` gave an IC50 of 5.74 ± 1.1 µM (cytotoxicity; 72 h).
The IC50 of `CCCCCCCCCCCCCCCC(=O)Oc1ccc(CO)cc1OC(=O)c1ccccc1` is reported as 4.7 ± 0.3 mg/L (cell viability, MTT; 48 h, serum-free medium).
With `C/C(=N\N=C1/NC(=O)CS1)c1c(O)c2ccccc2oc1=O` the IC50 was 26.3 ± 4.1 µM (cell growth, MTT; 48 h).
For `CCNC(=O)Nc1ccc(S(=O)(=O)Oc2ccccc2CC)cc1`, the IC50 was 4.7 µM (cell growth or viability, SRB; 48 h).
With `[Cl][Pd-2]1([Cl])[N+](=P(c2ccccc2)(c2ccccc2)C2C=CC=C2)Cc2cccc[n+]21.[Cl][Pd-2]1([Cl])[N+](=P(c2ccccc2)(c2ccccc2)C2C=CC=C2)Cc2cccc[n+]21.[Fe+2]` the IC50 was 3 µM (cell growth or viability, MTT; 74 h).
The IC50 of `N#C[CH2][Pd]1[O]c2ccc(Br)cc2C=Nc2cccnc2[N]1C1CCCCC1` is reported as 27.1 µM (cell growth or viability, MTT; 48 h).
`C=CCc1ccc(OCc2nnc(SCC(=O)Nc3ccc(Cl)cc3Cl)o2)c(OC)c1` has an IC50 of 10.7 µM (cell growth or viability, MTT; 72 h).
For `COc1c(OCc2ccccc2)cc2oc3cc(OCc4ccccc4)c(CC=C(C)C)c(O)c3c(=O)c2c1CC=C(C)C`, the IC50 was 13 µM (cell growth or viability; 48 h).
For `N=C(N)NCCC[C@H](N)C(=O)N1CCC[C@H]1C(=O)N[C@@H](Cc1ccc(O)cc1)C(N)=O`, the IC50 was over 100 µM.
`O=C(CNc1nnc(-c2ccccc2)s1)N1CCC(=C2c3ncccc3CCc3cc(Cl)cc(Br)c32)CC1` has an IC50 of 110 µM (cell growth or viability, SRB).
The IC50 of `COc1ccccc1CNC[C@@](O)(COCc1ccccc1)[C@@H]1CC[C@@H](C)C[C@H]1OCc1ccccc1` is reported as 1.6 µM (cell growth or viability, MTT; 72 h).
With `COc1ccc2cc3[n+](cc2c1OCc1cn(Cc2ccccc2)nn1)CCc1cc2c(cc1-3)OCO2` the IC50 was 77.9 µM (cell growth or viability, MTT).
The IC50 of `NS(=O)(=O)c1ccc(/N=N/c2ccc(O)c(C=O)c2)cc1` is reported as 9.15 µM (cell growth or viability, MTT; 72 h).
`CCCCCCCCOc1c(O)cc(C(=O)O[C@@H]2Cc3c(O)cc(O)cc3O[C@@H]2c2cc(O)c(O)c(O)c2)cc1O` gave an IC50 of 156 µM (cell growth or viability, CCK-8; 24 h).
For `CCCCn1cc(C(=O)O)c(=O)c2cc(F)c(Nc3cccc(OC)c3)c(N)c21`, the IC50 was 5.4 mg/L (cell growth or viability, SRB; 72 h).
For `Cc1c(C)c(C)[c-](C)c1C.O=Cc1ccc(-c2[c-]cccc2)nc1.[Cl-].[Ir+3]`, the IC50 was 6.5 ± 0.3 µM (SRB; 24 h, 72 h recovery).
For `O=C(NCc1ccccc1)/C(=C/c1cn(-c2ccccc2)nc1-c1ccccc1)NC(=O)c1ccc(Cl)cc1Cl`, the IC50 was 179 µM (cell growth or viability, MTT; 24 h).
The IC50 of `O=[N+]([O-])[O-].[NH3+][Pt-2]1([NH3+])[O]C(C(F)(F)F)=CC(c2ccccc2)=[O+]1` (stereo not drawn) is reported as 4.3 µM (cell growth or viability, MTT).
The IC50 of `COc1ccc(/C(=C(/CCn2cc(CN3C(=O)C(=O)c4ccccc43)nn2)c2ccccc2)c2ccccc2)cc1` is reported as over 100 µM (cell growth or viability, MTT).
With `NC(=S)NNC(=O)c1cc2c(ccc3ccccc32)oc1=O` the IC50 was 9.3 µM (cell growth or viability, SRB; 72 h).
The IC50 of `COc1ccc(CNC[C@@](O)(COCc2ccc(F)cc2)[C@@H]2CC[C@@H](C)C[C@H]2OCc2ccc(F)cc2)cc1` is reported as 0.9 µM (cell growth or viability, MTT; 72 h).
For `CN(C)C(=O)C1CN1S(=O)(=O)c1cccc2cc(N(C)C)ccc12` (stereo not drawn), the IC50 was 4.8 µM (cell growth or viability, MTT; 48 h).
For `COc1ccc([C@@H]2COc3cc(O)ccc3C2)c(OC)c1`, the IC50 was 36.4 µM (cell growth or viability, MTT; 72 h).
`O=C(c1ccc2ccccc2c1)c1cn(-c2ccccc2)nc1C1=Nn2c(CCc3nnc4n3N=C(c3nn(-c5ccccc5)cc3C(=O)c3ccc5ccccc5c3)CS4)nnc2SC1` has an IC50 of 32.4 µM (cell growth or viability, MTT; 48 h).
`CC[C@H](CC[C@@H](C)[C@H]1CC[C@H]2[C@@H]3[C@@H](O)C=C4C[C@@H](O)CC[C@]4(C)[C@H]3CC[C@]12C)C(C)C` gave an IC50 of over 30 µM (cell growth or viability, MTT).
`CCCCCCCCCCCCCCCCn1c(-c2cccnc2)nc(-c2ccc(C)cc2)c1-c1ccc(C)cc1` has an IC50 of over 100 µM (cell growth or viability, SRB; 24 h).
`CCN(CC)c1ccc2c(c1)[O][Pt-2]1([Cl])[N+](=C2)CC[NH+]1c1ccccc1` (stereo not drawn) has an IC50 of 28.3 µM (cell growth or viability, MTT).
The IC50 of `CSC(=S)N/N=C(\C)c1ccc(S(=O)(=O)N2CCC(C)CC2)cc1` is reported as 11.2 µM (cell growth or viability, MTT).
`C[C@]12CC/C(=N\OCCN3CCCC3)C=C1CCC1C2CC[C@]2(C)/C(=C/c3ccccn3)CCC12` (stereo partly drawn) has an IC50 of over 100 µM (cell growth or viability, MTT; 72 h).
`O=C1c2ccccc2C2C(=O)c3ccccc3OC12` (stereo not drawn) gave an IC50 of 5.69 mg/L (cell growth or viability, resazurin; 96 h).
The IC50 of `O=[C]=[Re-2]1(=[C]=O)(=[C]=O)([O]S(=O)(=O)c2ccc3ccccc3c2)[n+]2ccc(-c3ccccc3)c3ccc4c(-c5ccccc5)cc[n+]1c4c32` is reported as 1.31 µM (cell growth or viability, resazurin; 72 h).
`O=C(N/C(=C/c1ccc([N+](=O)[O-])cc1)c1nc2ccccc2c(=O)o1)c1ccccc1` has an IC50 of 25.4 µM (cell growth or viability, MTT; 48 h).
For `O=C(NCCCCCCCNc1n[n+]([O-])c2ccccc2[n+]1[O-])C(F)(F)F`, the IC50 was over 103 µM (cytotoxicity, MTT; 24 h, normoxia).
For `Cc1cc(C)c(C[n+]2cn(C3CCCC3)c3ccccc32)c(C)c1`, the IC50 was 22 µM (cell growth or viability, MTT; 48 h).
`CC(=O)N[C@H](CC(=O)O)C(=O)N[C@H](Cc1ccccc1)C(=O)N[C@@H](CC(=O)N[C@H](CCCNC(=N)N)C(N)=O)c1ccc2ccccc2c1` gave an IC50 of over 100 µM (cell growth or viability, ATP luminescence; 72 h).
With `[Cl][Pd-2]1([Cl])[N+](=Cc2ccc[nH]2)Cc2cccc[n+]21` the IC50 was 64.5 mg/L (cell growth or viability, MTT; 24 h).
`CCCCCCCCCCn1c(-c2cccnc2)nc(-c2ccc(C)cc2)c1-c1ccc(C)cc1` has an IC50 of over 100 µM (cell growth or viability, SRB; 48 h).
For `CC/C(=C(\c1ccccc1)c1ccc(OCCN(C)CCCCCCC(=O)NCCc2c[nH]c3ccc(OC)cc23)cc1)c1ccccc1`, the IC50 was 12.4 µM (cell survival, MTT; day 9, dosed days 2, 4, 7).
The IC50 of `CS/C(=N/N=C(\C)c1ccc(S(=O)(=O)N2CCC(C)CC2)cc1)SCc1ccccc1` is reported as 78.1 µM (cell growth or viability, MTT).
`NS(=O)(=O)c1ccc(/N=N/c2ccc(O)c(/C=N/c3cccc(O)c3)c2)cc1` gave an IC50 of 25.4 µM (cell growth or viability, MTT; 48 h).
`C=CC(OC(C)=O)c1ccc(OC(C)=O)c(OC)c1` (stereo not drawn) has an IC50 of 25.2 µM (cell growth or viability, MTT; 24 h).
`CCOC(=O)C/C(C)=N/NC(=O)c1nc2ccccc2n(C)c1=O` has an IC50 of 10.5 µM (cell growth or viability, MTT; 48 h).
For `O=C(CCc1nc2cc(Cl)ccc2[nH]c1=O)Nc1ccc(Cl)cc1`, the IC50 was 54.7 µM (cell growth or viability, MTT).
For `CC(=O)N[C@@H]1[C@@H](OC(C)=O)[C@H](OC(C)=O)[C@@H](COC(C)=O)O[C@H]1n1nc(-c2cc3ccccc3[nH]2)n(-c2ccccc2)c1=S`, the IC50 was 8.3 µM (cell growth or viability, MTT).

Excerpt of the above:
The IC50 of `NS(=O)(=O)c1ccc(/N=N/c2ccc(O)c(C=O)c2)cc1` is reported as 9.15 µM (cell growth or viability, MTT; 72 h).
`CCCCCCCCOc1c(O)cc(C(=O)O[C@@H]2Cc3c(O)cc(O)cc3O[C@@H]2c2cc(O)c(O)c(O)c2)cc1O` gave an IC50 of 156 µM (cell growth or viability, CCK-8; 24 h).
For `CCCCn1cc(C(=O)O)c(=O)c2cc(F)c(Nc3cccc(OC)c3)c(N)c21`, the IC50 was 5.4 mg/L (cell growth or viability, SRB; 72 h).
For `Cc1c(C)c(C)[c-](C)c1C.O=Cc1ccc(-c2[c-]cccc2)nc1.[Cl-].[Ir+3]`, the IC50 was 6.5 ± 0.3 µM (SRB; 24 h, 72 h recovery).
For `O=C(NCc1ccccc1)/C(=C/c1cn(-c2ccccc2)nc1-c1ccccc1)NC(=O)c1ccc(Cl)cc1Cl`, the IC50 was 179 µM (cell growth or viability, MTT; 24 h).
